Assay results gathered from unrelated publications.
Numbered parts are unrelated; each lists some results of a single study. Changes are numbered by the printed parent chain.

Series 1
Target: RNA binding protein fox-1 homolog 2, RRM domain, GST-SBP tag (RBFOX2, Homo sapiens, UniProt O43251-10, residues 100-194)
Method: RNA Bind-n-Seq
Form: RNA
Medium: in vitro
Tested at: 365 nM
Setting: natural RNA segment, single round, ends assumed
Relative to: no-protein control
Direction: higher = stronger binding
Target sequence (chain): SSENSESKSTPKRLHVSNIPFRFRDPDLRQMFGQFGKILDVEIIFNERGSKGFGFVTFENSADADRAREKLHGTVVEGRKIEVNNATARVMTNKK
Strand | RBNS enrichment (R)
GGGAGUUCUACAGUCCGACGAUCGAAAAAAAUUAAGAAACAACAGGCCAAACAUAUUUGCAAGUGGAUUUAAACGACUGGUCCAAAUUUUGCCUUCAGUUACAAGUCUGUGGCUCUCAUUUGCCUCCUCAGAAUGGAAUUCUCGGGUGCCAA | 0.555
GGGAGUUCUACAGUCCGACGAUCAAGUUUGAAGACCAAGAAAUCCUGUAUUUCCUACUCUAGGUGAGACAAUGUGAGAGGACAAAGUAUGAAGAGUCUGGUUUUUACUAGAACCUGACAGAGAAGGGAAGGUUUGGAAUUCUCGGGUGCCAA | 0.727
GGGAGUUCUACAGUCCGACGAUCAAUUUAACUGGCUUUUAAAUAUCCCCUUCCGCUGAUAUUUGUUGUCAGCUGCCUACAGUUUAAUAUGCAGCGUUCACAAAACAGCUGCCAGUGCUACAAUUAAUGAAGCAUGGAAUUCUCGGGUGCCAA | 0.303
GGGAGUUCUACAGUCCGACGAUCGUGGAAAUGAUCAGGAAUACUGACCGUGUUUCUCUUGCCUCCGAGGUUCUUGGGCACACUCUAUAGCCAUACUGGACAGGAACCAGGUGCCCCGUGUAGGCAUCGUCGGUUGGAAUUCUCGGGUGCCAA | 0.259
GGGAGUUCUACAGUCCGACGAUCUUGAUUCAUGCCAUUUGAUAAACUUCUGCCUUGUAGUCAUUGUUUGAUGGGACCAACUUGUAAAGUAUGAGCCUUAAAUAAAUCUCCAUGCUGAAAAAUGUGUUCUAAUGUGGAAUUCUCGGGUGCCAA | 0.422
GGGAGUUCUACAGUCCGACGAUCAAGGGAGAUUUCAAGCCACCUGACUUCUUCAGUUUAGUCUUCACCCAGGGUCAGAGCGCACAGCUUCAGGCAUCUCUGUCCACCAGCUAGCAGUGGAGAUGAAAUCAAGAUGGAAUUCUCGGGUGCCAA | 1.43
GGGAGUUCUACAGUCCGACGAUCGUUCCUACUCCCACCCUCAGCGAACUGGGCAGCACGGGGAGGGUUUGGCUACCCCUGCCCAUCCCUGAGCCAGGUACCACCAUUGUAAGGAAACACUUUCAGAAAUUCAGUGGAAUUCUCGGGUGCCAA | 0.425
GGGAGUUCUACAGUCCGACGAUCUUGGAAUGGGUAAAGUACAAAUGUUAAUGCAACAUAGUACAGUUGUAUUUGUCCUUCAUAUUCAGGAUGUGAUAUUUACAAAAUGCAGAACAGUUUAAACUUGUUAAGUCUGGAAUUCUCGGGUGCCAA | 0.476
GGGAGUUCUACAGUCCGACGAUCCUACAGUACUAAGACAAUGUUGAAUAUAUCAUUCGCCUCUAUAACAAUUUAAUGUAUUCAGUUUUGACUGUGCUUCAUAUCAUGUACCUCUCUAGUCAAAGUGGUAUUACUGGAAUUCUCGGGUGCCAA | 0.385
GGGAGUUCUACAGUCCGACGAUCCUCCUGGCCGCAUGGGGUGAGCGCACAGGGGAGCCGCUGCUGCCAUCCCUUGCCUCCAUGUGUUUCUAUGCAGCCAUAGUUUGAGGACAGCCAGGCACCCACCUCAGGACUGGAAUUCUCGGGUGCCAA | 0.558
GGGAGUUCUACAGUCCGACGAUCCCCUGAGUGGCAGUGUUCCCUCAUCCACCCUGUUGCCCCUUAGCUAGAAGCUGUAAUGGAUGCUCUUUUCCUCCGAUUAUGUAGAAAUGUGCAUUCAAAAGGAAUAGAACUGGAAUUCUCGGGUGCCAA | 0.293
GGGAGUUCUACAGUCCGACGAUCUGUGGGCUGAUAGUUGAUCACACAUUGUGCUUUUGAUUUUUGCAUUUGGUGAUGAAUAUUUUAUACCCGUCUAAGGGAGAAAGCUAAUGUUUUCCACAAGACUGAACAACUGGAAUUCUCGGGUGCCAA | 0.415

Series 2
Target: Histone acetyltransferase KAT6A, winged helix 1, GST fusion (KAT6A, Homo sapiens, UniProt Q92794, residues 1-85)
Method: protein binding microarray
Form: double-stranded DNA, one strand shown
Medium: in vitro
Tested at: not given
Setting: 8-mer, flanks averaged, mean of 2 arrays, mostly near background
Relative to: not given
Direction: higher = stronger binding
Construct (chain): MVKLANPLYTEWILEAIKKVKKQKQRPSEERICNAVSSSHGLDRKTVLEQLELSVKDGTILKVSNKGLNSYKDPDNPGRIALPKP
Strand | E-score
AAACAACC | -0.169
ACCGGGGA | 0.27
CTGTTTTC | -0.0526
GACGTACC | -0.0438
CGCCGTTA | 0.389
ACAGCCTC | -0.12
CAGATCCG | 0.114
CGCTCATA | 0.0215
GGTGCTAC | -0.0391
AATCTATC | -0.149
CCAGAAGA | -0.319
CAAACATG | 0.00639
GATTTGCA | -0.184
AATAGAAT | -0.294
GGAAGGAA | -0.109
CCAATGGA | -0.138
CGCGTCAG | 0.229
ATACTTTC | -0.134
GAGGGATC | -0.0668

Series 3
Target: Interferon regulatory factor 3, full length, phosphomimetic (IRF3, Homo sapiens, UniProt Q14653, residues 1-427, S386D/S396D/S398D/S402D/T404D/S405D)
Method: protein-binding microarray
Form: double-stranded DNA, one strand shown
Medium: in vitro
Tested at: 2540 nM top
Setting: 60-bp whole probe
With: salmon DNA 0.4 mg/ml
Relative to: random background probes
Direction: higher = stronger binding
Shared flanks, not repeated: GCCTAGCAC … GTCTTGATTCGCTTGACGCTGCTG
Residues (chain): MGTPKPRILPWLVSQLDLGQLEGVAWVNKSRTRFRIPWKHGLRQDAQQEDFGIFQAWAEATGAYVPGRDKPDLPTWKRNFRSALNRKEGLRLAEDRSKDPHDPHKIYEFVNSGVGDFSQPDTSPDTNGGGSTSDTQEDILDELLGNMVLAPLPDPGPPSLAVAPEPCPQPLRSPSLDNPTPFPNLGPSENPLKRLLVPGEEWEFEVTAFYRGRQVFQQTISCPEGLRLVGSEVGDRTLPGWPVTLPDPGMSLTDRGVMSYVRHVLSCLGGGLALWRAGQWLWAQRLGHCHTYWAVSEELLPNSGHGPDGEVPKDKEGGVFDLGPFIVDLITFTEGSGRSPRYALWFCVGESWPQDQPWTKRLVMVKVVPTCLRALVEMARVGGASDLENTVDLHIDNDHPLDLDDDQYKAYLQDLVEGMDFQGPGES
Strand | fitted relative affinity
CAACTTTTTTTAATTGAGAAGTGCTAG | 1.05 z-score
TTAGGTATCGGGTTTGGGTTAGTGCTA | 1.82 z-score
CTTAGCATGGGGAGGGAGCAGTGCTAG | -0.131 z-score
GACGAATTCGGGTATCGAGACGTGCTA | 0.815 z-score
TCATGCTTGGGTCTGGGACTGTGCTAG | -0.988 z-score
GACGAACTGTGTATCGAGACGTGCTAG | 0.127 z-score
TTAGATCTCAGTATCGATTAGTGCTAG | 1.05 z-score
TTTGGTTTCCTTATCCTTTAGTGCTAG | 8.78 z-score
GTCGGTTTCGACACTGGGGACGTGCTA | 4.62 z-score
GACGGTTTCTGTATCGGGACGTGCTAG | 4.73 z-score
GCCGATTTCAGTTTCGAGACGTGCTAG | 4.9 z-score
GACGAATTCAGTATCGAGACGTGCTAG | 1.18 z-score
GACGGTATTCTACTGCTGACGTGCTAG | 0.159 z-score
TTAGATTCCAGGTTCGATTAGTGCTAG | 1.65 z-score
TCAAGATTTTTTTTCCTACTGTGCTAG | 0.454 z-score
GACGATTTCCTTATCCTGACGTGCTAG | 4.63 z-score
TTAGATCGCAGACTGGATTAGTGCTAG | -0.345 z-score
GACGATTCCAGTTTCGTGACGTGCTAG | 2.56 z-score
TCAATTCTTTTTATGCTACTGTGCTAG | 1.13 z-score
GCCGATATCAGTTTCGAGACGTGCTAG | 3.56 z-score
CTTGGGCTCTTCTCTGAAGACGTGCTA | -0.184 z-score
GACGCTATCGGGTATCGAGACGTGCTA | -0.032 z-score
TCAGTTTTCAGCTGTTTTACTGTGCTA | 1.75 z-score
GACGATCTCTGACTGGAGACGTGCTAG | 0.265 z-score
TTAGGTCTAGGTATCGGTTAGTGCTAG | 1.07 z-score

Series 4
Target: Centromere-binding protein 1, full length, N-terminal tag (CBF1, Saccharomyces cerevisiae, UniProt P17106, residues 1-351)
Sequence of UniProt P17106 (whole entry, looked up): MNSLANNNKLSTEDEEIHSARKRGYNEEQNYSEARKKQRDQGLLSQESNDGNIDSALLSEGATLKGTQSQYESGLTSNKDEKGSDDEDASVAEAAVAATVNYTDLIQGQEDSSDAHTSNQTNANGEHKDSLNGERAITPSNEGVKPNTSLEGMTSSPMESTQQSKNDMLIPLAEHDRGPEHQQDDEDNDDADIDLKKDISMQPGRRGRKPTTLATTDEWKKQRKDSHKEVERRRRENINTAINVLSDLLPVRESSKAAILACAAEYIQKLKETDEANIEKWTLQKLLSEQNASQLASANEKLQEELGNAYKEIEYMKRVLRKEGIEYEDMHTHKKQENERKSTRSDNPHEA
Method: protein-binding microarray
Form: double-stranded DNA, one strand shown
Medium: in vitro
Tested at: 0.8 µM
Setting: whole 60-bp probe, no competitor
Direction: higher = stronger binding
Strand | fluorescence intensity
GAAACGCAAAGCAATCTATTTCTTCTTTTGGCCTAGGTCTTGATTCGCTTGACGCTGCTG | 488 a.u.
CTAAAAGAAAAATTAAACGTGATCGGTCTATCGTTCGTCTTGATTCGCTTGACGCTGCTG | 1620 a.u.
CTACTAAAGAACGTGCATCAGAGAAGAATGACTTTCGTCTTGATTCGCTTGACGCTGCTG | 1030 a.u.
GAACACAAAAAATGTCACCCATCATTATATGTATAGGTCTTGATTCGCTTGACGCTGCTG | 547 a.u.
GAAAGATGAAAAAGAAACGTGGTGGTACTTCGCTAGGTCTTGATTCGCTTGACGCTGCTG | 589 a.u.
CTAGGTCGTATATATATCGTGCGTCTTCTTCCTTTCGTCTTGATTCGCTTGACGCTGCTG | 510 a.u.
GAATTCTTAGTATTCCATGTGTCTCGTGATACCTAGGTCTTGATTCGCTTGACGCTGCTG | 3760 a.u.
CTACCAACCATATTACAAGTCACAAATTGGCAATTCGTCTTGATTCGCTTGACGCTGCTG | 564 a.u.
GAACGTCATATTCTATCCGTGATTTTTTTGGTTTAGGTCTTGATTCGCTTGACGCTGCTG | 621 a.u.
CTATCTTATCATGGTAGTGATCACAAATAGATCTTCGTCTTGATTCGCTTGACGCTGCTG | 649 a.u.
GAAAACAGGAAAACCAACGTGAATTGCAAGCACTAGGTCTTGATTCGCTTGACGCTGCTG | 513 a.u.
GAAAACCTGGAATGCCACGAGGATGTATTTTCGTAGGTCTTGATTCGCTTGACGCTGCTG | 578 a.u.
CTACCGTATTATTAACGTGACACTCAGTATTCTTTCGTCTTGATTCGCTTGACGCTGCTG | 1050 a.u.
CTAGCCGTGTTTAGTCAGGAGGGTGCACGTTGATTCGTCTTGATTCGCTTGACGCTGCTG | 631 a.u.
GAATCAAGGAATAAAGATATCACGTATACGGGATAGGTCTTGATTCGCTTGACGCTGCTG | 682 a.u.
GAAGGCCACGGAACGCACGTGGCGGGACTCGTATAGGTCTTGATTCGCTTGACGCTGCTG | 3280 a.u.

Series 5
Target: CCNA2, cyclin fold, Cln2 fusion (human)
Method: yeast growth competition, sequencing
Medium: yeast
Setting: strong parent motif
Relative to: not given
Direction: higher = stronger binding
Starting sequence: PKMYT1 docking peptide (human); SFEPRNLLSLFED
Change | normalised enrichment score
N6G | 0.421
S9E | 1.91
P4C | 0.0208
E12T | 1.91
E12P | 0.678
E3R | 4.72
L8V | 0.883
L8D | -0.0465
L8C | 1.56
S1A | 3.2
L10I | 1.5
E3A | 3.31
R5K F11L | 0.59
P4H | -0.703
L7A | -0.544
L8H | -0.0322
S1N | 3.26
L8R | 0.166
L7W | -0.381
S9F | 2.29
S1R | 4.23
F2Q | 0.447
N6C | 2.86
E3C | 3.44
L8P | -0.75
